Measurements collected from several papers.
Lines come from different studies, so protocols differ.
CDK4 with cyclin D3: Cyclin-dependent kinase 4, with cyclin D3 (CDK4, Homo sapiens, UniProt P11802)
CDK4 with cyclin D1: Cyclin-dependent kinase 4, with cyclin D1 (CDK4, Homo sapiens, UniProt P11802)
CDK4: Cyclin-dependent kinase 4 (CDK4, Homo sapiens, UniProt P11802)

The remaining binding of `C=CC(=O)N1CCc2ccc(-n3c(=O)ccc4cnc5ccc(-c6cnn(C)c6)cc5c43)cc21` is reported as 100% (CDK4 with cyclin D3; KINOMEscan; 1 µM; relative to: DMSO control).
With `CNC1C[S+]2CC[S+]3CC[S+](C1)[Ru-4]321([N]=C=S)[n]2c3ccc(OC)cc3c3c4c(c5cc(F)c[n+]1c5c32)C(=O)NC4=O` (stereo not shown) the remaining binding was 100% (CDK4 with cyclin D3; KinomeScan; 0.1 µM; relative to: untreated).
`Cc1ccc(-c2c(/C=C(\C#N)C(=O)NC(C)C)n(CCCO)c3ncnc(N)c23)cc1` has a remaining binding of 100% (CDK4 with cyclin D1; cell-free assay, competition with immobilised ligand; 1 µM).
`C[C@]1(O)CCCN(c2nc(Nc3ccc(S(=O)(=O)N[C@H]4CC[C@H](CN5CCN(c6ccc(C7CCC(=O)NC7=O)cc6F)CC5)CC4)cc3)ncc2C(F)(F)F)C1` (stereo partly shown) gave a remaining binding of 52% (CDK4 with cyclin D3; binding, competition with immobilised ligand; 1 µM).
The remaining binding of `COc1c(Cl)cccc1Nc1c(-c2ccncc2C#C[C@@]2(C)CCCN2C(=O)/C=C/CN(C)C)[nH]c2c1C(=O)NCC2` is reported as 73% (CDK4 with cyclin D1; binding, competition with immobilised ligand; 3 µM).
`CNC(=O)C1CCN(c2cc(C)c(F)cc2NC(=O)c2ccc(-c3cc(O)ccc3C)c(C)c2)CC1` gave a remaining binding of 100% (CDK4 with cyclin D3; binding, competition with immobilised ligand; 1 µM).
The remaining binding of `COc1cc(Nc2nccc(-c3cnn4nc(OC)ccc34)n2)cc(C(F)(F)F)c1` is reported as 96% (CDK4 with cyclin D1; binding, competition with immobilised ligand; 1 µM).
`Cc1cnc2nc1Nc1cccc(c1)COC/C=C/COCc1cc(ccc1OCCN1CCOCC1)N2` has a remaining binding of 96% (CDK4; binding; 0.1 µM).
For `CC(C)=CC1OC(C)(C)C2C=C3C(=O)C(Cl)=CC(O)C3C3C(O)C4OC4C(=O)C132` (stereo not shown), the remaining binding was 87% (CDK4 with cyclin D3; cell-free assay, competition with immobilised ligand; 10 µM).
With `CCN1CCN(Cc2ccc(C(=O)Nc3ccc(C)c(NCc4cnc5[nH]ccc5c4OC)c3)cc2C(F)(F)F)CC1` the remaining binding was 72% (CDK4 with cyclin D3; binding, competition with immobilised ligand; 1 µM).
`Nc1ncc2c(n1)-c1c([nH]c3ccc(C4=CCOCC4)cc13)CCC2` has a remaining binding of 97% (CDK4 with cyclin D1; binding, competition with immobilised ligand; 1 µM).
With `O=C(Nc1cc(-c2ccnc3[nH]ccc23)c(Cl)cn1)[C@H]1CCC[C@@H](NC(=O)C(F)(F)F)C1` the remaining binding was 10% (CDK4 with cyclin D3; kinome scan; 0.1 µM; relative to: control).
`C=CC(=O)N1CCCC(n2c(=O)c3ncccc3n(Cc3ccc(Oc4ccccc4)cc3)c2=O)C1` (stereo not shown) gave a remaining binding of 83% (CDK4; cell-free assay, competition with immobilised ligand; 1 µM).

Repeated from above:
`Cc1ccc(-c2c(/C=C(\C#N)C(=O)NC(C)C)n(CCCO)c3ncnc(N)c23)cc1` has a remaining binding of 100% (CDK4 with cyclin D1; cell-free assay, competition with immobilised ligand; 1 µM).
